Experimental data gathered from unrelated publications.
Numbered parts are unrelated; each lists some results of a single study. Changes are numbered by the printed parent chain.

Series 1 — method: DHFR PCA, deep sequencing; medium: yeast; together with: (+)-ABA 0.39 µM; reference: wild-type fitted maximum; reading: higher = stronger binding
Target: ABI1, truncated, D143A, DHFR fusion (Arabidopsis thaliana)
Notes: methotrexate growth selection, single substitutions
Parent: PYL1, truncated, DHFR fusion (Arabidopsis thaliana); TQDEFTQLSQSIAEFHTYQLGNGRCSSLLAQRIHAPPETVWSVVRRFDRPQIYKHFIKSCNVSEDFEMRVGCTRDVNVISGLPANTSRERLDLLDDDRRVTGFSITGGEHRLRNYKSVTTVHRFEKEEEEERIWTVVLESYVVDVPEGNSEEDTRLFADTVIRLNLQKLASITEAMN
Variant	relative binding score
T101W	-17.4%
L28S	2.99%
E139T	61%
N85Y	67%
S104H	-12.9%
E128L	26.8%
R69S	31.7%
R32D	3.37%
L169M	-3.71%
D153T	-15.2%
Y53N	-9.64%
Q31K	27.2%
R46L	3.2%
Y53G	-3.98%
L112K	-15.1%

Series 2 — method: universal PBM; form: double-stranded DNA, one strand shown; medium: in vitro; tested at: not given; reading: higher = stronger binding
Target: Sal-like protein 4, full length isoform B (SALL4, Homo sapiens, UniProt Q9UJQ4-2, residues 1-616)
Notes: 8-mer, flanks averaged, mean of replicates
Sequence	E-score
AAACCCGC	-0.155
CAAGAGTG	-0.047
GGCCTTAC	-0.133
GTAGCATA	0.183
CCGCAGCC	-0.297
AGACCGTG	-0.212
AGGCGTTA	0.0545
AGCAGTGA	-0.105
AGTGACTA	0.0798
GCACTCCA	-0.136
AGATGTAA	0.315
GAGACCTA	-0.151
CGACATGC	-0.0242
ACTAAACA	0.227
CCAGTTAC	-0.29
ACTGGCCA	-0.156
AGGATCTC	-0.129
CAGCCAAA	0.062
GACGTAAC	0.0126
ATTGTCTA	0.182
CTTCTATC	-0.0672

Series 3 — target: CCNA1, cyclin fold, Cln2 fusion (human); method: yeast growth competition, sequencing; medium: yeast; notes: weak parent motif; reference: not given; reading: higher = stronger binding
Parent: RP1L1 docking peptide (human); TLGLGPLSFTLED; partner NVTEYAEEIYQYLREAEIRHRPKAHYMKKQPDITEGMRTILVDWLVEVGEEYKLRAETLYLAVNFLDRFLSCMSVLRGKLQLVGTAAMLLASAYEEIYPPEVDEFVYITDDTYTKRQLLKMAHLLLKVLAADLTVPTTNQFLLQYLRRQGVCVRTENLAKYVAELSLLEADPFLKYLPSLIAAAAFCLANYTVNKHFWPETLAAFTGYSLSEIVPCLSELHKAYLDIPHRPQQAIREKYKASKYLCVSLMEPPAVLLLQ
Variant	normalised enrichment score
TLGLGALSFTLED [P6A]	-0.498
TLGLGPASFTLED [L7A]	-0.287
TLALGPLSFTLED [G3A]	-0.689
TLGLGPLSFTAED [L11A]	-0.457
TLGAGPLSFTLED [L4A]	-0.241
ALGLGPLSFTLED [T1A]	-0.559

Series 4 — method: RNA Bind-n-Seq; form: RNA; medium: in vitro; tested at: 365 nM; reference: no-protein control; reading: higher = stronger binding
Target: RNA binding protein fox-1 homolog 2, RRM domain, GST-SBP tag (RBFOX2, Homo sapiens, UniProt O43251-10, residues 100-194)
Notes: natural RNA segment, single round, ends assumed
All sequences stand within: GGGAGUUCUACAGUCCGACGAUC … UGGAAUUCUCGGGUGCCAA
Target sequence (chain): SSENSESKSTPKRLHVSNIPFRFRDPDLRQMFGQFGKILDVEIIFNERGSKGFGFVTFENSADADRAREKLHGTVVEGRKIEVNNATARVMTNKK
Sequence	RBNS enrichment (R)
AAGACAGGCAAGAGGUCUCUAAGGUGUUCCUUUCCUUUGUCUGAGUGUAUAGUAUUAAGAUGCCUAGAAGAGAGAUGGUUUUGUUCCACUCUUACAGGCACUUUAUAUUU	0.354
GAGAGUGAAGAAGAUGAAGACAGAUGCAGCCAGCCAGUCACACGAGAGGCCUGGCUUGCCUUGCCCAGUGCUGCCUAUAGCAUCCUCCCAGGGAGGCUUGCCCUGUGCCA	1.14
CUGUGGGGGCCUGCCCACUCCAUGGCAGUGCCCUGAAGGAGUCAGACUACCAUGGCAUCGCAGGCCCAGAGGGCAGACAUUUUUUCUAGUUUUUAAUUGGGGUGUGGGAG	0.337
GAGUCAGUGUGUCAUUUCAGUUUAACUGGAUGAACUGUCAAAUAAAGAAAUGCAGAAUGAAAACAAACUGUCUCUUACUUGUCCGUGAAGCGUGCGGCUUGGGUGUUGUA	0.425
GUUCAUGCUCAGCCCUGAACUCUAAUCUAGCCUGCAACCAGCCCUUCUCUCCUCUUAUCAUCUAACAUACCCUACUUGGAAAGAUCUAAGAUCUCAAUCUUAUCCUUUGC	0.53
CUUCCAGUACAAAAAUUAAGUGGACUAGACCUCCAGCUGUUGAGCCCCUCCUAGUUCUUCAUCCCACUCCAACUCUUCCCCCUCUCCCAGUUGUCCCGAUUGUAACUCAA	1.31
CUGCCAUUACACGGUCUUGUGAUGUGACUAAAAGCCACUUUGUGACUCCCUUCAUGUAAUCCUCUUUUCCUCCCCACUCCUCCACAGAGGGCAGAGCUCAGGACAUUUGC	0.441
AGCCUUUAUUCGUCAACGGCCUCUGCUCAGCCAGGCCCUUCCAGACAAAAGGCACUGAGGAACUUGCACCCCUUCCAGGGAGGGUGUCCAAGUAGCACCGUUCCUGCCCA	0.278

Series 5 — method: RNAcompete; form: RNA; medium: in vitro; tested at: 20 nM; notes: 7-mer, probes averaged, single round; reference: mean of 7-mers; reading: higher = stronger binding
Target: PABPC1L2, full length, GST fusion (mouse, UniProt A0ABA7IW68)
Target sequence (chain): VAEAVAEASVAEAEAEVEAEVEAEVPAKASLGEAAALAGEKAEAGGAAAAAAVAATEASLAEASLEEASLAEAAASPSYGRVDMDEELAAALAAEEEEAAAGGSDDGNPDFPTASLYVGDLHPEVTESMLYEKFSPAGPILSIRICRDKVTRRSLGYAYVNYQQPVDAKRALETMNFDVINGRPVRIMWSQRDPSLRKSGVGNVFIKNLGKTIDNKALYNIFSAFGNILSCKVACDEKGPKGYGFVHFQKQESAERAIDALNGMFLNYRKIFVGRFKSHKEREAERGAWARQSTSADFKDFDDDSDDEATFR
Sequence	7-mer Z-score
CCCCGCC	-0.516
AAUGGGC	0.568
AAGGGGU	0.472
AAUUUCA	-0.0246
GCAUUCU	-0.329
CUCCCUG	-0.393
GGUGAUG	-0.0718
AGUUGAC	-0.0989
UAUAAAC	1.87
AAAUUUC	0.78
CUCGGCG	-0.228
GUGCCAA	0.0696
GUGCGAG	-0.0591
CCACUGC	-0.284
UAAUUGU	-0.142
UUCGGAC	-0.251
AUGUUCG	-0.467
UAGCGAU	-0.13
UUUUGGG	-0.0681
GACCUUG	-0.262

Further values, each from its own experiment
Substance	target	test	test system	setting	scale	measurement	value
PhoQ, residues 284 288 289 292 302 303 ALSMDL	PhoP, residues 12 14 15 18 19 NQFFI (Escherichia coli, UniProt P23836)	Sort-seq, measured: YFP reporter	E. coli	PhoQ-PhoP variant library, together with: 10 µM Mg2+	reference: high Mg2+ state, higher = stronger signaling	fold induction	14.3

Some of these lines once more (series 1):
Variant	relative binding score
E139T	61%
N85Y	67%
S104H	-12.9%
E128L	26.8%
R69S	31.7%
R32D	3.37%
L169M	-3.71%
D153T	-15.2%
Y53N	-9.64%
Q31K	27.2%
R46L	3.2%
